Assay results of several laboratories.
Each line is one published result; not all experiments were run side by side. ± marks the error that the study gave.

The chains behind the UniProt entries cited, without tags or fusion partners. Residues count along the entry.
UniProt P00519, 229-512 limits assumed: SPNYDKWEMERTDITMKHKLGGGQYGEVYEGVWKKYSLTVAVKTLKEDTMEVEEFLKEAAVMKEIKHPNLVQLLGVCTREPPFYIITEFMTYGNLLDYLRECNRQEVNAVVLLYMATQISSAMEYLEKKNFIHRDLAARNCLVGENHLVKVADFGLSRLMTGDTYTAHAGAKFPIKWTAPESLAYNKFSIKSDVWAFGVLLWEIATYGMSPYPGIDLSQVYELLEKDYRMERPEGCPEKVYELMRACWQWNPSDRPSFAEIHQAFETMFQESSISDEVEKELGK
UniProt Q96HE7, whole entry, looked up: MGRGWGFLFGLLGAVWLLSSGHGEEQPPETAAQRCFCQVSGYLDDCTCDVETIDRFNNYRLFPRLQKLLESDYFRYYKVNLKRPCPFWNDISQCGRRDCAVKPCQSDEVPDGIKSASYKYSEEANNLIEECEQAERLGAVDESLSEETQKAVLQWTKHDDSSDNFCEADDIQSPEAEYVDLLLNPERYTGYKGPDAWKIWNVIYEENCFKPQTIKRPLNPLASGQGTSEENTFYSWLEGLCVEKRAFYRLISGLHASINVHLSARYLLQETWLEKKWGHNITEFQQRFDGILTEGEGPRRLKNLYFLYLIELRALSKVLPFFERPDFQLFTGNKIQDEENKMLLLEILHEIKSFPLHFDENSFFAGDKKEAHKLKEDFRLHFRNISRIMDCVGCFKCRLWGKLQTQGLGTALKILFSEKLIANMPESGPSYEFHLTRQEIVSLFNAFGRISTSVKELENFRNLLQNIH
UniProt P03372, whole entry: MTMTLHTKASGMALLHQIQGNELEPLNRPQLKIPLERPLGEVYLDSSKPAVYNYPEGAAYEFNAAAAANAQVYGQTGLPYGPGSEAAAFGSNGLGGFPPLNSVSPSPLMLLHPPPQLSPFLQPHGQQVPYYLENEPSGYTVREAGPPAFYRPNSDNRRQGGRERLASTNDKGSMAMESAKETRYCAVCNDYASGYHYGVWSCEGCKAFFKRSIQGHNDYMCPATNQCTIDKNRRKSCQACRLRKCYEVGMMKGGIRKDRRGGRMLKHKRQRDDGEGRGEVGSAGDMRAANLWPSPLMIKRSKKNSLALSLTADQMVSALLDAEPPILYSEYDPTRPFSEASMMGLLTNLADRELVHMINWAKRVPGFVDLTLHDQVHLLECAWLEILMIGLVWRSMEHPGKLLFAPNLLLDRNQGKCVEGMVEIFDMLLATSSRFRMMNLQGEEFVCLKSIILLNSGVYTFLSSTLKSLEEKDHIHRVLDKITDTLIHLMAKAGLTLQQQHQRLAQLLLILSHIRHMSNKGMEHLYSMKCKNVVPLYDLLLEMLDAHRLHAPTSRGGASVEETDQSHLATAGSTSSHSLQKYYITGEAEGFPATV
UniProt Q6P5Z2, whole entry: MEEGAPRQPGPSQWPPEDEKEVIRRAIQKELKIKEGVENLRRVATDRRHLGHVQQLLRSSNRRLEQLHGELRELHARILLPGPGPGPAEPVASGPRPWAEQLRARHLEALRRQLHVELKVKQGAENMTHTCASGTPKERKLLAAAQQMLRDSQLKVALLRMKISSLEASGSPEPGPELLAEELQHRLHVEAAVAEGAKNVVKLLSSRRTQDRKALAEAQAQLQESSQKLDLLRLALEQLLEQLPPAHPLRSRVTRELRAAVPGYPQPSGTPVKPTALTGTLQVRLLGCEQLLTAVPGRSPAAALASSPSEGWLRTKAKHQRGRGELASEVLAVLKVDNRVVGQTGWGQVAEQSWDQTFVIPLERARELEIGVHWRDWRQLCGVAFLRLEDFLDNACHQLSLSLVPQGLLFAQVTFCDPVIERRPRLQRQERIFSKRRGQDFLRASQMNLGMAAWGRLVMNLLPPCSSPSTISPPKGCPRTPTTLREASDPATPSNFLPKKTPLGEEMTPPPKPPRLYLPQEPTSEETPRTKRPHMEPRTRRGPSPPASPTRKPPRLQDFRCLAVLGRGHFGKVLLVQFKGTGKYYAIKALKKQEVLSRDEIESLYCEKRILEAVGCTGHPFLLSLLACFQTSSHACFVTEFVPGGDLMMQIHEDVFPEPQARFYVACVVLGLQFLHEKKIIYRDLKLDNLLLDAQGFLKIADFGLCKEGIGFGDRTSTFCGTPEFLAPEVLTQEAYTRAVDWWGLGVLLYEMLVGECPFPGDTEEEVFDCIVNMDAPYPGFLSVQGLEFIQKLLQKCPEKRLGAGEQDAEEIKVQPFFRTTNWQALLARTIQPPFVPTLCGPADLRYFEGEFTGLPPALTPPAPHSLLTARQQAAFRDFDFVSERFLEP
UniProt Q9Y3Z3, whole entry: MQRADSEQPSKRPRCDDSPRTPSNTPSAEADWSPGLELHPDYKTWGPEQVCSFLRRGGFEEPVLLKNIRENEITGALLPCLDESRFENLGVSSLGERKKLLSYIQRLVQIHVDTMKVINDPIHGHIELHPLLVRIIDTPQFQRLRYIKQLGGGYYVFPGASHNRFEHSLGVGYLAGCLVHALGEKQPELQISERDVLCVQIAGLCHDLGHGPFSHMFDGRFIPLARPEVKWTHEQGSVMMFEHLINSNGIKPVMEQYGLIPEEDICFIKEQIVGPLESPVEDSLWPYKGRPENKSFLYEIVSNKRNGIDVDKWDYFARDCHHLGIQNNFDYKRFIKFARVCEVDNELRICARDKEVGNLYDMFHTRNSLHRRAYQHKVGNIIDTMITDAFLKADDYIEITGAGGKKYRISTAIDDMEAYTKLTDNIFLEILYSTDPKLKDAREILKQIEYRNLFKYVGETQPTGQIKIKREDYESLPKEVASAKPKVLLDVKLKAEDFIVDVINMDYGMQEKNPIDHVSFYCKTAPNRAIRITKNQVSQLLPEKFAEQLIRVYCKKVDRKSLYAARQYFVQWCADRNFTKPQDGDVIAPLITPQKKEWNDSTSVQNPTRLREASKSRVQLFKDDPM
UniProt P05067, whole entry, looked up: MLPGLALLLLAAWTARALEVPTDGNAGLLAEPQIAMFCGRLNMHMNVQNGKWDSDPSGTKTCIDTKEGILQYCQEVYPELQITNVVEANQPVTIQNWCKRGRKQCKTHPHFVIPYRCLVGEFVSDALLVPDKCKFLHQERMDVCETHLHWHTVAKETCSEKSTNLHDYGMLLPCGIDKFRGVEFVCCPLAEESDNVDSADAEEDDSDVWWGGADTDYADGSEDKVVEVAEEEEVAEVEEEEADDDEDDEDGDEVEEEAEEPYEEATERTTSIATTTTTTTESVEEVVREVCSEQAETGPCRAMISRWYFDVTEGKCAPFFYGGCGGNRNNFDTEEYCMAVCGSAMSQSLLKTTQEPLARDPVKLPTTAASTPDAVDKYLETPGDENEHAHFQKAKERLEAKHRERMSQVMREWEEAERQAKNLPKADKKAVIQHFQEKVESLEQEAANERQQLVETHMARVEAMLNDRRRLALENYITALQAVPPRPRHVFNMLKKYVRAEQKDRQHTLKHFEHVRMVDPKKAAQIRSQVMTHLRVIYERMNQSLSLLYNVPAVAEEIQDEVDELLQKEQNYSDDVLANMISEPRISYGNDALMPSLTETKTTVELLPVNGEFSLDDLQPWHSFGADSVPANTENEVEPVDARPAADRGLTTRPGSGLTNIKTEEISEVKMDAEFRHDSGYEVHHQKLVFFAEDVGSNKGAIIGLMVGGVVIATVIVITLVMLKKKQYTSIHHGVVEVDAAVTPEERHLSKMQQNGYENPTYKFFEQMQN
UniProt O14757, whole entry: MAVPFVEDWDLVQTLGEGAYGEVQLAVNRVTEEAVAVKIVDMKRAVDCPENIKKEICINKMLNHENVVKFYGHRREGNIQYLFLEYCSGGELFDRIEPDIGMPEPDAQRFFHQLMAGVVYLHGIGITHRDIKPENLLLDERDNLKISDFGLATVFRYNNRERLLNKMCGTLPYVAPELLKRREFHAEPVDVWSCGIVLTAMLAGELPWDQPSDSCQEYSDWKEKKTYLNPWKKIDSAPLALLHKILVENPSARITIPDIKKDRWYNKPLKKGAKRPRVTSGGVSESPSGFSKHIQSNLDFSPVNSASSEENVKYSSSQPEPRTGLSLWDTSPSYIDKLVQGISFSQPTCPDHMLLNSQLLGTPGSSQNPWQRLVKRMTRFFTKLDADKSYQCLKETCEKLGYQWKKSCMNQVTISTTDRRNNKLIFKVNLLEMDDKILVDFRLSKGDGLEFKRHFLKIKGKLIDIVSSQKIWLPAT
UniProt P33176, whole entry, looked up: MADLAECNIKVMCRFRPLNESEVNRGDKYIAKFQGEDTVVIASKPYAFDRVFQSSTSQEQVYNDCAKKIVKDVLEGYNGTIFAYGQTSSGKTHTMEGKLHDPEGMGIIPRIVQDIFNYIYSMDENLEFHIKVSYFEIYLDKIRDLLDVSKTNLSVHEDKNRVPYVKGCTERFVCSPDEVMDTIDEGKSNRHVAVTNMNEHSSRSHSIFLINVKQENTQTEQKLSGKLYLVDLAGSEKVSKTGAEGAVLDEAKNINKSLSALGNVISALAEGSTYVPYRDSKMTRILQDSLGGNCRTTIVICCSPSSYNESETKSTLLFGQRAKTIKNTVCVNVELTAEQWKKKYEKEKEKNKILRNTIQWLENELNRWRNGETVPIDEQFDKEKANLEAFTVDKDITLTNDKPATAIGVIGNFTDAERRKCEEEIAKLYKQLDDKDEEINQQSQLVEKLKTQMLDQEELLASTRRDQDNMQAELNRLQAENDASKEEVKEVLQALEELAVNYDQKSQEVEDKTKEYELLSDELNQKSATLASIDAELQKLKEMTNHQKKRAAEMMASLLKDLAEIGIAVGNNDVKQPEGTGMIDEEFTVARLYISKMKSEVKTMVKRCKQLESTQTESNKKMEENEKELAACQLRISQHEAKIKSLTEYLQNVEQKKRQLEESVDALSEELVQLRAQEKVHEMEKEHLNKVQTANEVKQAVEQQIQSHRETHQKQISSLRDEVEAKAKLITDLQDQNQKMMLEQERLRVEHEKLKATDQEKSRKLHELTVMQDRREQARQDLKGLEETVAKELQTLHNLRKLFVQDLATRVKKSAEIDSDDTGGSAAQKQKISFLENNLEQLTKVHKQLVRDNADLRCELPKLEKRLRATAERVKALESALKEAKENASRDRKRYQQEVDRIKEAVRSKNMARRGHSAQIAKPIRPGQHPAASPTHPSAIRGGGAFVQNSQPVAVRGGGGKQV
UniProt P29466, whole entry, looked up: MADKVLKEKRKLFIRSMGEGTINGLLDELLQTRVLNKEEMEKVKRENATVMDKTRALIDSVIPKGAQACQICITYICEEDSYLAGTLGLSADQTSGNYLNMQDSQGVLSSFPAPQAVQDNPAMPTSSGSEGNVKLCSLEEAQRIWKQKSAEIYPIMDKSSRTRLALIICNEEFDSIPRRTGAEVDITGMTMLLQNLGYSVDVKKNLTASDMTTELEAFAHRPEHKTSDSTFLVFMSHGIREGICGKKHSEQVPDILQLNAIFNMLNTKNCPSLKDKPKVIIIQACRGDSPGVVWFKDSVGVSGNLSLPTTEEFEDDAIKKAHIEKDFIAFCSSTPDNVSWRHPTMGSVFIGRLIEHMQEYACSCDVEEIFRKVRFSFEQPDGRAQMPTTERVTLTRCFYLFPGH
UniProt Q96RJ0, whole entry: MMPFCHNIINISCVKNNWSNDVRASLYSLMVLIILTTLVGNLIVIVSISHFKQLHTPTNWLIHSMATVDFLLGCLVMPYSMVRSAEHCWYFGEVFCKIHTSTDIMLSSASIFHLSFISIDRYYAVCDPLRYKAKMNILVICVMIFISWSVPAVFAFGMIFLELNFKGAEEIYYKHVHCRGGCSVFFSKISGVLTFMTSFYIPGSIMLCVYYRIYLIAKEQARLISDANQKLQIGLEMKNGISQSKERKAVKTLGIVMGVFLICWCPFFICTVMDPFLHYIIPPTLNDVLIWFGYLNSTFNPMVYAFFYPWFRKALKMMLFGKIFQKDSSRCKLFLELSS
UniProt P14902, whole entry: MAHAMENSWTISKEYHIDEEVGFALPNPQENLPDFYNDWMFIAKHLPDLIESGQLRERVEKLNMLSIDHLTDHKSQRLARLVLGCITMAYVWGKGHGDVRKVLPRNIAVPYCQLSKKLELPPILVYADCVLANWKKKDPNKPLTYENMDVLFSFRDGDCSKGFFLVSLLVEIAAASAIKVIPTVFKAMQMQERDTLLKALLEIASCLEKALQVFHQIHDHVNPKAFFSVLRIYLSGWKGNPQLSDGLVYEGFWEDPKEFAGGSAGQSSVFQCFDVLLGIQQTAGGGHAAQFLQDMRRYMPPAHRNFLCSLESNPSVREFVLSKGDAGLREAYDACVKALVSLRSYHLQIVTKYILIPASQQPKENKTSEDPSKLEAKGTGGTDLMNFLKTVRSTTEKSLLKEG
UniProt P24280, whole entry: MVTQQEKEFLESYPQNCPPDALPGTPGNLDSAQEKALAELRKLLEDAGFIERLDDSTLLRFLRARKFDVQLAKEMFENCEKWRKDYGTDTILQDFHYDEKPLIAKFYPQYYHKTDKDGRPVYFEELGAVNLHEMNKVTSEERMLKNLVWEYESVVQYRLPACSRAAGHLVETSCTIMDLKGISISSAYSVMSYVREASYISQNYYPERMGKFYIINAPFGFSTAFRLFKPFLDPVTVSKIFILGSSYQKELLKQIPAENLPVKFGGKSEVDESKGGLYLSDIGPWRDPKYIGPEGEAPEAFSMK

`COC(=O)[C@@H]1C(C=Nc2nccs2)=Cc2cc3c(cc2[C@H]1c1cc(OC)c(OC)c(OC)c1)OCO3` has an EC50 of 51.6 ± 1.8 µM (Leishmania infantum; promastigote, iRFP).
`CCOc1ccc2cc(-c3nn(CC4CCNCC4)c4ncnc(N)c34)ccc2c1` has an IC50 of > 10 µM (Tyrosine-protein kinase ABL1 (ABL1, Homo sapiens, UniProt P00519); kinase activity, inhibitor, radiometric; highest tested 10 µM).
With `O=C(Nc1cccc(-c2nc3ccccc3s2)c1)c1ccc(N2CCOCC2)cc1` the IC50 was > 100 µM (Tyrosine-protein kinase SYK, with FCER1G (SYK, Homo sapiens, UniProt P43405); protein binding, inhibitor, TR-FRET).
The IC50 of `N#Cc1c2c(c(Sc3nnc(-c4ccccc4)n3-c3ccccc3)n3c1nc1ccccc13)CCC2` is reported as 9.6 µM (ERO1-like protein alpha (Homo sapiens, UniProt Q96HE7); enzyme activity, inhibitor, fluorescence).
With `CN1CC[C@H](c2c(O)cc(O)c3c(=O)cc(-c4ccc(Cl)cc4)oc23)[C@H](O)C1` the IC50 was 0.287 µM (Cyclin-dependent kinase 2, part with cyclin A (CDK2, Homo sapiens, UniProt P24941); enzyme activity, inhibitor; with cyclin A, together with: histone H1 substrate).
`CC(C)CNC(=O)CSc1nc2ccc(NC(=O)CSc3ccc4ccccc4c3)cc2s1` gave an IC50 of 12 µM (Estrogen receptor (ESR1, Homo sapiens, UniProt P03372); reporter gene, antagonist; HEC-1 transfected ERα luciferase reporter).
The IC50 of `COc1cc2nccc(Nc3ccc(NC(C)=O)cc3)c2cc1OC` is reported as > 50 µM (Serine/threonine-protein kinase N3 (PKN3, Homo sapiens, UniProt Q6P5Z2); binding, split-luciferase).
For `Nc1nc2c(ncn2COCCNC(=O)c2cc3cc(Br)ccc3c(Br)c2O)c(=O)[nH]1`, the IC50 was 5 ± 0.9 µM (Deoxynucleoside triphosphate triphosphohydrolase SAMHD1 (SAMHD1, Homo sapiens, UniProt Q9Y3Z3); dNTPase activity, inhibitor, malachite green; together with: dATP and GTP).
`N#Cc1ccc2[nH]cc(/C=C/c3c[nH]c4ccccc34)c2c1` gave an IC50 of 4.6 µM (Amyloid-beta precursor protein, amyloid-beta peptide (APP, Homo sapiens, UniProt P05067); Aβ42 oligomerisation, ELISA).
`CC(=NNC(=N)N)c1ccc(NC(=O)c2c[nH]c3ccccc23)cc1` has an IC50 of > 100 µM (Serine/threonine-protein kinase Chk1 (CHEK1, Homo sapiens, UniProt O14757); kinase activity, inhibitor, IMAP fluorescence polarisation; 60 min).
`CN1CCN(Cc2ccc(NC(=O)c3cncc(C#Cc4cncc5ncccc45)c3)cc2C(F)(F)F)CC1` gave an IC50 of 0.00357 ± 0.00025 µM (Kinesin-1 heavy chain/ Tyrosine-protein kinase receptor RET (RET/KIF5B, Homo sapiens, UniProt P07949+P33176, G810A); cell viability, inhibitor, CellTiter-Glo; Ba/F3 KIF5B-RET G810A).
`N#Cc1ccc(S(=O)(=O)NC[C@H]2OC(O)[C@H](NC(=O)c3cccc(-c4ccccc4)c3)[C@@H](O)[C@@H]2O)cc1` (stereo partly drawn) gave an IC50 of 0.00495 ± 0.00053 µM (Hexokinase-1 (Homo sapiens, UniProt P19367); enzyme activity, inhibitor, G6PDH-coupled; together with: ATP 1.5 mM, glucose 0.225 mM).
`C[C@@H](OCC1CCCCC1)[C@H](NC(=O)[C@@H]1CN(C(=O)c2cncs2)CC12CN(C(=O)[C@H]1CC1(C)C)C2)C(=O)N1CCOCC1` has an IC50 of 0.75 µM (Cyclin-dependent kinase 2/cyclin E1 (Homo sapiens, UniProt P24864+P24941); kinase activity, inhibitor, ADP-Glo).
With `c1c(N2CCCC2)nc(N2CCCC2)nc1N1CCN(CC2CCCC2)CC1` the IC50 was 0.04 ± 0.007 µM (Caspase-1 (CASP1, Homo sapiens, UniProt P29466); enzyme activity, inhibitor; 30 min preincubation, together with: Ac-WEHD-AMC 10 µM).
`COc1ccc2nc3ccc(OC)cc3c(SCCN)c2c1` has an IC50 of 0.2 µM (Serine/threonine-protein kinase haspin (HASPIN, Homo sapiens, UniProt Q8TF76); inhibitor, TR-FRET; together with: histone H3 peptide).
With `N#Cc1cccc(C(=O)N2C[C@H](O)C[C@H]2C(=O)NCc2ccc(-c3cnco3)cc2)c1` the IC50 was 40.3 ± 3.9 µM (von Hippel-Lindau disease tumor suppressor, with elongin B, C (VHL, Homo sapiens, UniProt P40337); binding, fluorescence polarization; 10% DMSO, together with: FAM-HIF1α peptide tracer).
For `Cc1cc(C(F)(F)F)c(C#N)c(SCC(=O)Nc2ccccc2)n1`, the IC50 was > 10 µM (Trace amine-associated receptor 1 (TAAR1, Homo sapiens, UniProt Q96RJ0)).
The IC50 of `COc1ccc2[nH]cc(/C=C/c3ccc(OS(C)(=O)=O)cc3)c2c1` is reported as > 100 µM (Indoleamine 2,3-dioxygenase 1 (IDO1, Homo sapiens, UniProt P14902); enzyme activity, inhibitor).
`O=[N+]([O-])c1cc(CN2CCN(c3ccccc3F)CC2)ccc1Cl` gave an IC50 of 5.68 ± 0.5 µM (SEC14 (Saccharomyces cerevisiae, UniProt P24280); phosphatidylinositol transfer, inhibitor; Sec14 287 nM, together with: [3H]-phosphatidylinositol).
With `CCCCNCC1=Cc2cc3c(cc2[C@@H](c2cc(OC)c(OC)c(OC)c2)[C@@H]1C(=O)OC)OCO3` the EC50 was 38.3 ± 3.7 µM (Leishmania infantum; promastigote, iRFP).
For `O=C(O)c1cc(C(=O)N[C@@H](Cc2ccc(O)cc2)C(=O)O)cc([C@H]2CCN[C@@H]2C(=O)O)c1`, the IC50 was 10 µM (AMPA receptor (rat); binding, radioligand binding; rat cortical synaptosomes; together with: [3H]AMPA).

Some of these lines once more:
`N#Cc1ccc(S(=O)(=O)NC[C@H]2OC(O)[C@H](NC(=O)c3cccc(-c4ccccc4)c3)[C@@H](O)[C@@H]2O)cc1` (stereo partly drawn) gave an IC50 of 0.00495 ± 0.00053 µM (Hexokinase-1 (Homo sapiens, UniProt P19367); enzyme activity, inhibitor, G6PDH-coupled; together with: ATP 1.5 mM, glucose 0.225 mM).
